Experimental data of several laboratories.
A part holds a random share of what one study measured. Positions count from the first letter of the parent shown.
Chain of UniProt Q05940 (whole entry, looked up): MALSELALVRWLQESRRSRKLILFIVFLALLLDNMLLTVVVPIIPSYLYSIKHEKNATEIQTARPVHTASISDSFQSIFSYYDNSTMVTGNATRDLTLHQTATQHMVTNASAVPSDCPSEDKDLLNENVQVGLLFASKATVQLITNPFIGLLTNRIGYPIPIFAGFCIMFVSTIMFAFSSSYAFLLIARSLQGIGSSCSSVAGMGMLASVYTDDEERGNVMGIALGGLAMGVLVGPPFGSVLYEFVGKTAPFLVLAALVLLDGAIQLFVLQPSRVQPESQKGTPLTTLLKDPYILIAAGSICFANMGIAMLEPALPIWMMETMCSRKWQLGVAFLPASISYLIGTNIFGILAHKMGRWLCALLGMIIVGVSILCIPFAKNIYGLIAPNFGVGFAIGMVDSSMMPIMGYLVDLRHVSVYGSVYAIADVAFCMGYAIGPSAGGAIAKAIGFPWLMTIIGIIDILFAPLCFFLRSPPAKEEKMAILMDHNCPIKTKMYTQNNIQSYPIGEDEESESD

Series 1 — target: inorganic phosphate, free oxyanion; technique: microfluidic competitive inhibition; medium: in vitro, cell-free expressed; concentration: not given; reading: lower = stronger binding
Setting: derived from inhibition constants, unchanged parent 615000 nM
Starting sequence: PafA, mature enzyme, eGFP fusion (Elizabethkingia meningoseptica, UniProt Q9KJX5); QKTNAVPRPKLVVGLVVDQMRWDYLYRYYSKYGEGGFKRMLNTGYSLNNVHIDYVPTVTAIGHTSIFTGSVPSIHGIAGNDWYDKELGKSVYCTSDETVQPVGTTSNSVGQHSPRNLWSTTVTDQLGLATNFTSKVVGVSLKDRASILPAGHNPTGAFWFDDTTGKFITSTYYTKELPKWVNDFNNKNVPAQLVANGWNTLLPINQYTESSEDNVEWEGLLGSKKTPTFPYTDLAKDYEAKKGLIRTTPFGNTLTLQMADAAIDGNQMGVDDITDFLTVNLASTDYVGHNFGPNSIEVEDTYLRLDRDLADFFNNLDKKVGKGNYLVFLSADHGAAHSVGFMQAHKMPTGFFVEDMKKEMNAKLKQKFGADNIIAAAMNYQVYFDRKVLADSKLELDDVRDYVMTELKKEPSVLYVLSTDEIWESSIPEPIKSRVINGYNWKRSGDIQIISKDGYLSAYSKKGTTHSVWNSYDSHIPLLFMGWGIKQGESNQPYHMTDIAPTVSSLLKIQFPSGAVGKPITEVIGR
| Change | phosphate dissociation constant [µM] |
| --- | --- |
| T105V | 648 |
| K387V | 680 |
| Y459V | 642 |
| K179V | 650 |
| S418V | 638 |
| L15G | 882 |
| I74V | 591 |
| T502G | 578 |

Series 2 — target: CCNF, cyclin fold, Cln2 fusion (human); technique: yeast growth competition, sequencing; medium: yeast; setting: strong parent motif; baseline: not given; reading: higher = stronger binding; starting sequence: viral docking peptide; YKVKRRLVFGADD
| Change | normalised enrichment score |
| --- | --- |
| R6K | 8.74 |
| R6C | 8.32 |
| D12H | 8.73 |
| K4P | 8.38 |
| R5N | 1.14 |
| V8K | 9.13 |
| K4A | 8.21 |
| R5T | 5.03 |

Mixed results
| Compound | target | assay | setting | endpoint | result |
| --- | --- | --- | --- | --- | --- |
| C[C@H](NC(=O)c1cnc2n1[C@](C)(Cc1ccc(C#N)cc1)C(=O)N2c1cc(Cl)c(F)c(Cl)c1)C(=O)NC1(c2ccccn2)CC1 | Serine/threonine-protein kinase PknB (pknB, Mycobacterium tuberculosis, UniProt P9WI81) | cell-free assay, competition with immobilised ligand | 1 µM | remaining binding | 100% |
| COc1ccc2c3c1O[C@H]1C(=O)CC[C@H]4[C@@H](C2)N(C)CC[C@]314 | Synaptic vesicular amine transporter (SLC18A2, Homo sapiens, UniProt Q05940) | inhibitor | literature data | IC50 | > 10 µM |

A few entries again (series 1):
| Change | phosphate dissociation constant [µM] |
| --- | --- |
| Y459V | 642 |
| K179V | 650 |
| S418V | 638 |
